Measured values from different studies.
A part holds a random share of what one study measured. “And” joins repeats or separate records; there may be more than shown.

Sample 1 — method: RNA Bind-n-Seq; form: RNA; matrix: in vitro; tested at: 90 pmol; setting: 4-mer, random 30-nt RNA, single round; baseline: input library; reading: higher = stronger binding
Target: ATP-dependent RNA helicase DDX3X, helicase core (DDX3X, Homo sapiens, UniProt O00571, residues 132-607)
Chain of UniProt O00571 (132-607, looked up): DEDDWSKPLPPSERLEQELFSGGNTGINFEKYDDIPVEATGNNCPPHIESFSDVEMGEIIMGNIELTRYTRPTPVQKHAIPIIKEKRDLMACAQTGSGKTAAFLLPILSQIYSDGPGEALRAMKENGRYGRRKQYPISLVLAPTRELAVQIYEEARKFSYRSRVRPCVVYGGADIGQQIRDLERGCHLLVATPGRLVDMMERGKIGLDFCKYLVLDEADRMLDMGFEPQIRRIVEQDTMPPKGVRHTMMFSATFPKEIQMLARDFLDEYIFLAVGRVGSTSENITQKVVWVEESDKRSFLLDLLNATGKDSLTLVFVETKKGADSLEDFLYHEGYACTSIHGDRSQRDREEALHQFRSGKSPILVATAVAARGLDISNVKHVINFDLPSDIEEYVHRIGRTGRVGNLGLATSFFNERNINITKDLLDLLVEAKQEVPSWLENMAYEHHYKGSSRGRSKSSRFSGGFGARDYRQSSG
Added: 3 µM iPr-DMDA-PatA, 2 mM ADP, 2 mM phosphate
| Sequence | 4-mer enrichment [fold] |
| --- | --- |
| GAAU | 1.31 |
| CUCG | 0.814 |
| GUUU | 1 |
| AUUA | 1.28 |
| GCAU | 0.803 |
| GUCG | 0.935 |
| GUGG | 0.869 |
| CACU | 0.953 |

Sample 2 — method: RNA Bind-n-Seq; form: RNA; matrix: in vitro; tested at: not given; baseline: input RNA pool; reading: higher = stronger binding
Target: RING finger protein unkempt homolog, zinc fingers 1-6, GST-SBP tag (UNK, Homo sapiens, UniProt Q9C0B0, residues 30-357)
Setting: RNA with constant flanks, human and mouse sites, ends assumed
Shared flanks, not repeated: GGGAGUUCUACAGUCCGACGAUC … CAACAGAGGAUUGAGCAUCA
Target sequence (chain): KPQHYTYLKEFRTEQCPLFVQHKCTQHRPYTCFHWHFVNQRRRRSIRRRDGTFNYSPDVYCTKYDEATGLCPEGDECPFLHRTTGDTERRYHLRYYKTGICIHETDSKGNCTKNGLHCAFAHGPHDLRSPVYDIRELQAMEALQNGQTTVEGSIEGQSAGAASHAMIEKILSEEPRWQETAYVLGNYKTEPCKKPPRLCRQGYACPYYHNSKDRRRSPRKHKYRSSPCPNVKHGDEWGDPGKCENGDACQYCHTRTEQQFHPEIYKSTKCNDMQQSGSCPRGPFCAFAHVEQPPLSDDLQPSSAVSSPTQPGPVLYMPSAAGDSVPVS
| Sequence | bound/input enrichment [ratio] |
| --- | --- |
| UGGGAACCGGCGAGAAUCGCCUUUCUGAAUGAAGAGCCCUCUUCACUGCCCCACCCUCACCUUAGAAUUCUCUCCUCUUUCCAAAGAAUGGCAGUUGAACCUCACUGGCCCCUCUGGGGA | 0.178 |
| UAUCUGAAUGACUUGGACCGUGUAGCCGACCCUUCCUAUCUGCCUACACAACAAGACGUGCUUAGAGUUCGAGUCCCCACUACAGGGAUCAUCGAAUACCCCUUUGACUUACAAAGUGUC | 0.133 |
| GGAAGAGUUGGGCUGUGGAAGGACAUCUUCACCGUCUCCAUGAAUGAGAAGUUUGACUUGGUGUAUAAACAGAAGAUGGGAAAGUGUGACCUCACGUUUGACUUUUAUUUAUAAUAACAG | 0.0959 |
| CUGUGUAGUCGCAGUGACACUAUCGAUACUGUUUCUGUGCCUUAUGUUUUUCGGUAUUUUGUAGCUGAACUGGCAGCUAUGAACAUCAAAGUGAAACUGGAUGUUGUUUAACUUGAUGUU | 0.207 |
| UCCUAUGUGGACGUUGGCACUGGGAAGGUCACUCUGGAAUAUAGACCCGUGAUCGACAAAACUUUGAACGAGGCUGACUGUGCCACCGUCCCGCCAGCCAUUCGCUCCUACUGAUGAGAC | 0.0764 |
| CAGAGUUUACUUUUCAGAUCAAAUUGUUUAUGGUUUUACAAAUGUGAUUUCUACUUGGCAACCUUUUUUUGGUAACUCGUUCCCUUAUACCUCCUUGAUUGAAUACCUUACAGCCUAGAC | 0.465 |
| CCAUCGUCAACUCACACCAUUCCAUUCUAUCCCAACCCCUUGCACCCUAGGCCAUUUCCUAGCUCCCGCCUUCCUCCAGGAAUUAUCGGGGGUGAAUAUGACCAAAGACCAACACUUCCC | 0.27 |
| UGGGCGCAGCAGUGUGGGGACACUGCUCUUGGAUGCCCUGGCUUUCUCCUGAAAUCGUGCCUUAGCUUCAGUCUUGCAGCUAUCAGGAUGGGGUGAAGCUGUGGUGCUGCCCCCCACCCU | 0.129 |

Sample 3 — cell line: normal organoid sample D; method: CellTiter-Glo; host: human; matrix: normal-adjacent epithelium; tested at: 1 µM; baseline: DMSO
| SMILES | viability |
| --- | --- |
| C[C@@H](NC(=O)Nc1cc2[nH]ncc2c(CO)n1)c1ccccc1 | 108% and 105% |
| CCC(=O)N[C@H]1CC[C@@H](C(=O)N(C)c2ccc(-c3nc4ccccc4o3)cc2)C1 | 52.8% and 65% |
| CN1CCN(c2cnc3c(C4CCN(C(=O)c5ccc(OC(F)(F)F)cc5N)CC4)ncnc3c2)CC1 | 100% and 94.7% |
| Cc1noc([C@H]2C[C@@H](c3ccc(C(F)(F)F)cc3)CN(C(=O)N3CCS(=O)(=O)C3)C2)n1 | 98.2% and 84.1% |
| Cn1cnc2c(F)c(Nc3ccc(Br)cc3Cl)c(C(=O)NOCCO)cc21 | 90.7% and 93.9% |
| Cc1cn(-c2cc(NC(=O)c3ccc4c(c3)CN(c3cncnc3)C[C@@H]4C)cc(C(F)(F)F)c2)cn1 | 99% and 97.2% |

Sample 4 — effect on: enzyme activity; mode: inhibitor; tested at: 0.5 µM; baseline: control
Target: Myotonin-protein kinase (DMPK, Homo sapiens, UniProt Q09013)
Chain of UniProt Q09013 (whole entry, looked up): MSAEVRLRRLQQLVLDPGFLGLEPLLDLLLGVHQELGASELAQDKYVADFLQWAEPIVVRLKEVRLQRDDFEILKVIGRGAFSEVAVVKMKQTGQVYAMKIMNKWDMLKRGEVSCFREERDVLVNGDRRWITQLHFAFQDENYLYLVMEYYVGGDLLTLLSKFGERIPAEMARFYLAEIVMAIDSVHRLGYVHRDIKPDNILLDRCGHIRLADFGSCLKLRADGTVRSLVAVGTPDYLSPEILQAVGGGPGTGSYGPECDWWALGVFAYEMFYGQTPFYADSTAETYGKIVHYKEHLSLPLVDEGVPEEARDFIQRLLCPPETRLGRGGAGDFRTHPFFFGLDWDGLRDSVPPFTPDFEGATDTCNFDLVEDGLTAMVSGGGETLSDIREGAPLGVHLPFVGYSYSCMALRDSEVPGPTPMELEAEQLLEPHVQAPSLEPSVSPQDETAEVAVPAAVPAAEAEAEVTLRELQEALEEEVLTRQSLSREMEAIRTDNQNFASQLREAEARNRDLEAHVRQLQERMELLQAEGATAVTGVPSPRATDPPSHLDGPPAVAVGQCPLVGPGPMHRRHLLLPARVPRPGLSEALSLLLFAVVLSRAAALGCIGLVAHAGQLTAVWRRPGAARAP
| Compound | remaining activity |
| --- | --- |
| O=c1cc(N2CCOCC2)oc2c(-c3ccccc3)cccc12 | 99.4% |
| NC(=O)c1cccc(-c2cc(Nc3ccc(OC(F)(F)F)cc3)ncn2)c1 | 96.1% |
| N#Cc1cnc2cnc(NCc3cccnc3)cc2c1Nc1ccc(F)c(Cl)c1 | 104% |
| FC(F)(F)c1ccc(/C=C/c2nc(COc3ccc(CCCCn4ccnn4)cc3)co2)cc1 | 101% |
| COc1ccc2c(c1)c(C1=C(c3c[nH]c4ccccc34)C(=O)NC1=O)cn2CCCN(C)C | 97.7% |
| O=C1Cc2c([nH]c3ccc(Br)cc23)-c2ccccc2N1 | 110% |
| NC(=O)c1ccc(-c2nc(-c3ccc4c(c3)OCCO4)c(-c3ccccn3)[nH]2)cc1 | 99.9% |
| COc1cccc(-c2cc(=O)c3ccccc3o2)c1N | 97.1% |
| CCCCc1c(-c2ccc(OC)cc2)[nH]c2nccnc12 | 84.3% |
| O=c1c(-c2ccc(F)cc2)c(-c2ccncc2)[nH]n1-c1ccc(Cl)cc1 | 87.6% |
| CC(C)n1cnc2c(Nc3cccc(Cl)c3)nc(NCCO)nc21 | 98.5% |
| O=C1NC(=O)c2c1c1c3ccccc3[nH]c1c1[nH]c3cc(Br)ccc3c21 | 104% |
| CCN(CC)CCCCN1c2ccccc2Oc2ccc(Cl)cc21 | 99.2% |
| CCCNC(=O)Nc1ccc(Oc2ncnc3cc(OC)c(OC)cc23)cc1Cl | 100% |
| O=C1c2ccccc2-c2nc3nnnn3nc21 | 84.8% |
| CCCCc1c(-c2ccc(O)cc2)[nH]c2nccnc12 | 91.8% |
| CN1CCN(c2ccc3nc(-c4c(N)c5c(F)cccc5[nH]c4=O)[nH]c3c2)CC1 | 107% |

For quick reference, copied from above (sample 1):
| Sequence | 4-mer enrichment [fold] |
| --- | --- |
| AUUA | 1.28 |
| GCAU | 0.803 |
